Published values from different studies.
Numbered parts are unrelated; each lists some results of a single study.

Set 1 — method: protein-binding microarray; form: double-stranded DNA, one strand shown; medium: in vitro; tested at: 250 nM; setting: 60-bp whole probe; with: salmon DNA 0.4 mg/ml; baseline: random background probes; direction: higher = stronger binding; all sequences stand within: GCCTAGCAC … GTCTTGATTCGCTTGACGCTGCTG
Target: Interferon regulatory factor 7, full length, phosphomimetic (IRF7, Homo sapiens, UniProt Q92985, residues 1-503, S101K/S471D/S472D/S475D/S476D/S477D/S483D/S484D/S487D)
Construct (chain): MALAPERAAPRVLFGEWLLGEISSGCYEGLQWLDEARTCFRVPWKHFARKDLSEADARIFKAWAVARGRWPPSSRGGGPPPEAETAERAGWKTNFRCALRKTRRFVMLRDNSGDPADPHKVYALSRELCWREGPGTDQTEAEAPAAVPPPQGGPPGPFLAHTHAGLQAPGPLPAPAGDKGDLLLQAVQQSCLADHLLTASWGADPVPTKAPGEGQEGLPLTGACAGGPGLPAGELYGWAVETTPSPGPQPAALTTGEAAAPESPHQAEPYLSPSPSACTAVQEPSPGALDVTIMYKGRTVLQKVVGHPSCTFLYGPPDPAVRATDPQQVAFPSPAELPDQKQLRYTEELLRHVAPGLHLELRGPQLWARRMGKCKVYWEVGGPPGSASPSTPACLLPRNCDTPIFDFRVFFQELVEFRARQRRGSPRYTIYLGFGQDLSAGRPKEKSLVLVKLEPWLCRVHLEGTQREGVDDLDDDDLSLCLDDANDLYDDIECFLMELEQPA
| Strand | log fluorescence [z-score] |
| --- | --- |
| GACGGTATCGGTTTCGGTACGTGCTAG | 7.99 |
| ATAGGTATCGGACTGGGTTAGTGCTAG | 0.277 |
| ATAGGTCTCGGTATCGGTTAGTGCTAG | 3.36 |
| TTAGGTTTCGACTTGCGGTTAGTGCTA | 12.1 |
| TTCGGACTGCTACTGCTTTAGTGCTAG | -0.604 |
| TCAGATTTCGGGTATCGATTAGTGCTA | 1.75 |
| TTAGGTATCGACTTTGGGTTAGTGCTA | 0.855 |
| GACGGTTTCCTTTTCCTAACGTGCTAG | 7.4 |
| TTAGGTATCGGGTACCGGTTAGTGCTA | 0.93 |
| TTAGGACTGGGACTGGGGTAGTGCTAG | -0.323 |
| TCACACCAGAGGGCGCTGTGGTGCTAG | -0.56 |
| TTAGGTTCCGGTATCGGTTAGTGCTAG | 3.72 |
| TTAGGTATCCTTATCATTTAGTGCTAG | 0.481 |
| TCACTTACCTCACTCGTACTGTGCTAG | 0.534 |
| TTAGGTATGGGTATCGGTTAGTGCTAG | 0.858 |
| GACGATCTCAGACTGCAGACGTGCTAG | -0.38 |
| GACGAACTGGGTCTCGAGACGTGCTAG | 0.0515 |
| GTAGGACTGCTTATCCTTTAGTGCTAG | -0.186 |
| GACGGTATCGGACTGGCGACGTGCTAG | -0.568 |
| GACGATCTAAGTTTCGAGACGTGCTAG | 3.96 |
| TGCTTTTTAGAAATTTTTTTTGTGCTA | 0.64 |
| GACGGTATCGGGTCTCGGGACGTGCTA | 0.96 |
| TTAGGCTTCGGGACTGGGTTAGTGCTA | -0.474 |
| GACGGTTCCCTTTGCCTGACGTGCTAG | 0.935 |
| TTAGGTTTCGACCCTGGGTTAGTGCTA | 3.27 |

Set 2 — method: protein binding microarray; form: double-stranded DNA, one strand shown; medium: in vitro; tested at: not given; baseline: not given; direction: higher = stronger binding
Target: Histone acetyltransferase KAT6A, winged helix 2, GST fusion (KAT6A, Homo sapiens, UniProt Q92794, residues 85-181)
Setting: 8-mer, flanks averaged, mean of 2 arrays, mostly near background
Construct (chain): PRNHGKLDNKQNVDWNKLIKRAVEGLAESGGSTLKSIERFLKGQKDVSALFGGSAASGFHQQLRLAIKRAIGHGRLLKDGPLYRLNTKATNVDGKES
| Strand | E-score |
| --- | --- |
| GGAGCTGA | -0.0391 |
| AACCCATC | -0.179 |
| GATTTTGC | -0.135 |
| ATATACTA | -0.014 |
| CCCTATGC | -0.0313 |
| CCTCTCAA | -0.00407 |
| AGGGGTCA | -0.0749 |
| AGGGGAGC | -0.0217 |
| ACCAGTAC | -0.0978 |
| ACGAGATC | -0.0549 |
| AGGAGGGA | -0.0319 |
| GGGCCTAC | -0.0682 |
| CCATCGGC | 0.00101 |
| TCAAAGCA | 0.157 |
| ATCTCTCC | -0.0757 |
| AGCCCTTA | -0.078 |
| AGCGCGGC | 0.116 |
| GTAATGCA | -0.0929 |
| GCGGGGTA | 0.0642 |
| CTGGTTAA | -0.041 |
| GATATAGA | 0.0678 |
| AAGGGCAA | 0.132 |
| AACTTAAA | -0.0986 |
| CTACGAGC | -0.162 |
| GTTTGAAA | 0.131 |

Set 3 — method: protein-binding microarray; form: double-stranded DNA, one strand shown; medium: in vitro; tested at: 0.8 µM; setting: whole 60-bp probe, no competitor; direction: higher = stronger binding; all sequences stand within: … GTCTTGATTCGCTTGACGCTGCTG
Target: Centromere-binding protein 1, full length, N-terminal tag (CBF1, Saccharomyces cerevisiae, UniProt P17106, residues 1-351)
Sequence of UniProt P17106 (whole entry, looked up): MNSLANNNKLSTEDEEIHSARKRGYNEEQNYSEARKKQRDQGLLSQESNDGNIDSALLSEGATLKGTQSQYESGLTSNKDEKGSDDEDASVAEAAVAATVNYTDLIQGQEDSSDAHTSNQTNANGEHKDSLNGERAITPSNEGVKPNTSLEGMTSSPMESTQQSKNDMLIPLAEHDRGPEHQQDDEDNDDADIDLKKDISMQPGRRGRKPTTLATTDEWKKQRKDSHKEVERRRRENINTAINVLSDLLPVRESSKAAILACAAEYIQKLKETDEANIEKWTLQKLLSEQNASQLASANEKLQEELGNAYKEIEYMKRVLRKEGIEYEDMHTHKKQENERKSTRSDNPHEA
| Strand | fluorescence intensity [a.u.] |
| --- | --- |
| GAAATAGAAGCAAATGACATCAGAATATATATATAG | 577 |
| GAACCGATTGATAGTCATGATCAGATTCTTTATTAG | 596 |
| CTACATATTTATGATAGCATCAGATTCATTTCCTTC | 513 |
| GAATCGTTCTCATCTCATGTGAAAAACTATATCTAG | 604 |
| GAAAATTTACTCTGTGACAATGATAAGCCAGATTAG | 617 |
| GAAACATTATCCTAAAACGTGGCGTTACTGACTTAG | 558 |
| CTAATTGGGACAAGTCACGAACAATTTTAGAGATTC | 582 |
| GAATTGTATGCTGGGTAGCTGATGTGCACCTAATAG | 506 |
| GAAATCCAATGCTGACAGCTGAGTATTGCAACATAG | 508 |
| CTAACACTAAACGGTTGTCAGGAGAAAAATTGATTC | 514 |
| CTAGCTTTAATGAAACATGTGAAGTGTTTCGCATTC | 650 |
| GAATCGTTTTCGTGTGTGGTGACGATGTATTAGTAG | 562 |
| TGTACGAAGCTATTGATCATTTCTATAGTAGTTAGG | 518 |
| GAAGATACATAATTTCAGACCACTTAATCTCATTAG | 513 |
| CTACTGTTATTCTGCTTGACCACGAATGTACTGTTC | 598 |
| CTAAGTTGATAACGTCAGGTGGAAAACCGAAAGTTC | 788 |
| GAATTTCAATCTTGCATCACCATTACCAGCACGTAG | 545 |
| GAAAAGATTGGCGGTGGTCTGACATGTTGATTATAG | 593 |
| CTAAAACCATCACAAAATGTCACGTGCATGTTATTC | 19500 |
| GAATTTTATCAGAGTCACGTGACATATATCACTTAG | 55700 |

Set 4 — method: universal PBM; form: double-stranded DNA, one strand shown; medium: in vitro; tested at: 600 nM; direction: higher = stronger binding
Target: Sal-like protein 4, full length isoform A (SALL4, Homo sapiens, UniProt Q9UJQ4, residues 1-1053)
Sequence of UniProt Q9UJQ4 (whole entry, looked up): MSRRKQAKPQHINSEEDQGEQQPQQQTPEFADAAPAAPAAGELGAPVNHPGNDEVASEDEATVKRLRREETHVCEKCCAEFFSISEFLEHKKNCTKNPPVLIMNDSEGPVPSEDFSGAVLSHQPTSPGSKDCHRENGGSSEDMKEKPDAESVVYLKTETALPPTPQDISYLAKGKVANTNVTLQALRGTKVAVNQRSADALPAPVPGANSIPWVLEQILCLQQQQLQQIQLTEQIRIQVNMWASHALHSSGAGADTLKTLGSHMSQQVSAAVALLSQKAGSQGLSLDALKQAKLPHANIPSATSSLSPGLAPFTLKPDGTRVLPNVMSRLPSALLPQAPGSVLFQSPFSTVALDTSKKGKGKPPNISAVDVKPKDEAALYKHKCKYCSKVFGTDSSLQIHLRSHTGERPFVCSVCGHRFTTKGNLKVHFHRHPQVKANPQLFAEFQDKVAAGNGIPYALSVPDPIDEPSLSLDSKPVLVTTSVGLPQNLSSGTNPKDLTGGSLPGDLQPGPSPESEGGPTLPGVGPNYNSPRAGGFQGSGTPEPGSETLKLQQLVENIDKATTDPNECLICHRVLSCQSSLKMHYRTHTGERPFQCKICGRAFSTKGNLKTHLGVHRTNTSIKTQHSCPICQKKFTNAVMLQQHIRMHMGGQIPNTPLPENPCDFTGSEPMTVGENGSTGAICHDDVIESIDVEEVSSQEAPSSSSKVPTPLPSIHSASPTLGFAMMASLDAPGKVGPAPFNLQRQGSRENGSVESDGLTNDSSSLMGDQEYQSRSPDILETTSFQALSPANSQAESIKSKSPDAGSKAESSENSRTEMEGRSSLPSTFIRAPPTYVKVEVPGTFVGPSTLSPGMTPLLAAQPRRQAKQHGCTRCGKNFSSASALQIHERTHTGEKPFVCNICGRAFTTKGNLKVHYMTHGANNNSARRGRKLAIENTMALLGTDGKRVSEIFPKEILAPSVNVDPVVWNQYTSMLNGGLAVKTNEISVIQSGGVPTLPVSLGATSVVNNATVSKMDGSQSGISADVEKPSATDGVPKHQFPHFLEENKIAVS
Setting: 8-mer, flanks averaged, mean of replicates
| Strand | E-score |
| --- | --- |
| GGCTTCTA | -0.0769 |
| AATCGTGG | 0.11 |
| GCCTACAC | -0.107 |
| AAGTACCA | 0.0678 |
| AACGGTAG | -0.0745 |
| GGCATGAA | 0.0699 |
| ACGCAACT | -0.0331 |
| TAGTAGCA | 0.0959 |
| CAACTAAC | 0.0369 |
| ACAATAAG | 0.252 |
| ATCAGGCG | -0.208 |
| AACGGGCG | -0.193 |
| ATCTTCCA | 0.0971 |
| GACCAGCA | -0.242 |
| ACTAATCA | 0.234 |
| ACTTAGGA | 0.0224 |
| GTAGTGAC | -0.0971 |
| GGTCGGTA | -0.088 |
| ACGGGATC | -0.0626 |
| AACAGTCC | -0.0859 |
| ACTTACGG | 0.0107 |
| GTTTCGCA | -0.0233 |
| AACAGTCG | -0.0565 |
| AACGATGT | 0.162 |
| AATAGGTA | 0.322 |

Set 5 — method: RNA Bind-n-Seq; form: RNA; medium: in vitro; tested at: 20 nM; setting: 6-mer, flanks averaged, single round; with: 150 mM LiCl; baseline: input library; direction: higher = stronger binding
Target: TAR DNA-binding protein 43, full length, His tag (TARDBP, Homo sapiens, UniProt Q13148, residues 1-414)
| Strand | 6-mer enrichment (R) |
| --- | --- |
| UAAUUC | 0.93 |
| AAUGCA | 0.913 |
| AUUUAA | 0.99 |
| GUCUCC | 0.938 |
| GUCGUC | 1.03 |
| CGGAAA | 0.873 |
| CCCAAC | 0.938 |
| GAGGCC | 1.01 |
| GGUUGG | 1.32 |
| GCAGGG | 1.19 |
| AAACUC | 0.861 |
| ACUAGC | 0.851 |

Set 6 — method: aptamer microarray, sandwich; form: DNA with 2'F-ANA; medium: in vitro; tested at: 200 nM; with: Cy3 exosite-II aptamer, 400 nM; direction: higher = stronger binding; strand: GGTTGGTGTGGTTGG
Target: Prothrombin, mature alpha-thrombin (F2, Homo sapiens, UniProt P00734)
Setting: whole 15-mer aptamer, many near background
| Modification | mean fluorescence intensity [a.u.] |
| --- | --- |
| 2'F-ANA at 1 2 3 4 5 6 7 8 10 11 14 15 | 54 |
| 2'F-ANA at 2 4 6 7 8 9 12 13 14 15 | 98.5 |
| 2'F-ANA at 1 4 5 9 10 11 12 14 15 | 76.1 |
| 2'F-ANA at 1 3 6 8 10 | 78.1 |
| 2'F-ANA at 1 3 6 8 9 10 11 12 13 14 | 65.5 |
| 2'F-ANA at 2 4 5 8 10 12 13 14 | 43.4 |
| 2'F-ANA at 3 5 10 12 13 15 | 60.8 |
| 2'F-ANA at 2 3 4 5 9 11 14 15 | 53.3 |
| 2'F-ANA at 1 3 5 11 15 | 57.5 |
| 2'F-ANA at 1 3 4 9 10 12 14 | 65.4 |
| 2'F-ANA at 1 2 3 5 6 10 12 13 14 15 | 73.1 |
| 2'F-ANA at 2 5 6 7 11 12 13 14 15 | 52.5 |
| 2'F-ANA at 1 2 3 4 7 8 10 11 | 59.9 |
| 2'F-ANA at 1 2 3 4 5 6 9 10 11 12 13 14 | 53.9 |
| 2'F-ANA at 1 2 3 4 5 9 10 | 44.9 |
| 2'F-ANA at 1 2 3 6 8 11 12 13 15 | 323 |
| 2'F-ANA at 1 2 3 4 5 10 12 13 14 | 60 |
| 2'F-ANA at 1 5 10 11 12 13 | 48.3 |
| 2'F-ANA at 2 4 7 10 11 12 13 14 15 | 64.3 |
| 2'F-ANA at 3 7 8 9 10 13 14 15 | 473 |
| 2'F-ANA at 2 6 7 8 9 11 12 13 15 | 444 |
| 2'F-ANA at 1 3 6 8 15 | 308 |

For quick reference, copied from above (set 1):
| Strand | log fluorescence [z-score] |
| --- | --- |
| GACGGTTTCCTTTTCCTAACGTGCTAG | 7.4 |
| TTAGGTATCGGGTACCGGTTAGTGCTA | 0.93 |
| TTAGGACTGGGACTGGGGTAGTGCTAG | -0.323 |
| TCACACCAGAGGGCGCTGTGGTGCTAG | -0.56 |
| TTAGGTTCCGGTATCGGTTAGTGCTAG | 3.72 |
| TTAGGTATCCTTATCATTTAGTGCTAG | 0.481 |
| TCACTTACCTCACTCGTACTGTGCTAG | 0.534 |
| TTAGGTATGGGTATCGGTTAGTGCTAG | 0.858 |
| GACGATCTCAGACTGCAGACGTGCTAG | -0.38 |
| GACGAACTGGGTCTCGAGACGTGCTAG | 0.0515 |
| GTAGGACTGCTTATCCTTTAGTGCTAG | -0.186 |
| GACGGTATCGGACTGGCGACGTGCTAG | -0.568 |
| GACGATCTAAGTTTCGAGACGTGCTAG | 3.96 |
| TGCTTTTTAGAAATTTTTTTTGTGCTA | 0.64 |
